Results from different studies.
Each numbered part is a random draw from the data of one study; scales do not carry over between parts.

Series 1 — method: RNA Bind-n-Seq; molecule type: RNA; sample: in vitro; tested at: not given; reference: input RNA pool; reading: higher = stronger binding
Target: RING finger protein unkempt homolog, zinc fingers 1-6, GST-SBP tag (UNK, Homo sapiens, UniProt Q9C0B0, residues 30-357)
Setting: RNA with constant flanks, human and mouse sites, ends assumed
Constant ends, left off below: GGGAGUUCUACAGUCCGACGAUC … CAACAGAGGAUUGAGCAUCA
Target sequence (chain): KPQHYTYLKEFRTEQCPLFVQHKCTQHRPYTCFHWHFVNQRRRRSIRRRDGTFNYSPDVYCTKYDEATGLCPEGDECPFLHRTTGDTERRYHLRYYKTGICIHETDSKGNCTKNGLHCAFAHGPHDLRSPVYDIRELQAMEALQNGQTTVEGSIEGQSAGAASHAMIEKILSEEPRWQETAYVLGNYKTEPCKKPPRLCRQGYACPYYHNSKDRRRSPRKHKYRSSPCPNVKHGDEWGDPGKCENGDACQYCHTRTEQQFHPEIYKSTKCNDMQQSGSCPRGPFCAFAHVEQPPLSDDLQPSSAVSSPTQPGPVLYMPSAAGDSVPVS
| Strand | bound/input enrichment [ratio] |
| --- | --- |
| AUGGACUUGGCAGCCAAUGAAAAGGCCGUUCAUGCAGACUUUUUUAACGAUUUUGAAGAUCUUUUUGAUGAUGAUGACAUCCAGUGAGAUGCCCUCUGGCUGCAGGCGGGGCCAAGCCCU | 0.337 |
| GAGAAGUGGUCAGUUGCUAAGGAAGUGGAUUUCCCAGUAGGGGUUUCUGCACCUCACCUGUAUAGUCGUUCUGCGCAUGUCCCCCACACAGUCCCCACUGUAUUUACCUGUUCUACUUGU | 0.358 |
| CUACCCCCAUUGCAGGAUUGGACAAUACCAUCUUAUUCUUGAGAGGCUGUAAGGAGCUUGGCCUUAAAGAAUCUCAACUCUUUGACCCGAGUGACCUCCAGGAUACCUCCAACAGGGUCA | 0.116 |
| GCGAAACAGGAAAUCCUGGAAAACAAAGAUGUGGUGGUUCAGCAUGUUCAUUUUGAUGGACUUGGGCGGACUAAGGAUGACAUCAUCAUUUGUGAAAUCGGAGAGGUCUUUAAGGCUAAA | 0.189 |
| CAAAACUCCGUACAUUGCUAUUUUGCCACACUGCAACACCUUACAGAUGUGGAAGAUGUGAAAUUUGUCAUCAAUUAUGACUACCCUAACUCCUCAGAGGAUUAUAUUCAUCGAAUUGGA | 0.112 |
| CUAAGGAAAGAAGGGCUAAAGGAUGAGGAAGAGCUCUUUGAUUUUAAAGCUGGAGAAGAAGUACUGGCUCGUUGGACAGACUGUCGCUAUUACCCUGCCAAGAUUGAAGCAAUUAACAAA | 0.253 |
| GACGGACAUUUGAUAAACACAGGACAAGCUAUGGAUAGUUCAGACAAUUCAGAAAGGACUGGUGAGCGGGUUUCUCCUGAUAUUAAUGAAACUAAUACUGAUACAGAUUUAUUUGUGCCA | 0.429 |
| AUGGUGGCCUGCAGCGGCCAAGAAGCCAAAAAAAAUUUUUUUUUUUUCAGAUACUGUGCUUGAUUUUUGGAGAGGGGAGAGGUGGAAAUUCCUAAAUGGCUAAUGCACUGUUCCCUCCAG | 0.229 |
| AACCAAGAACAUGAAACAGAGGACUGUGCUGAAUCUCUAAAUCAUGCUGAUAGUGAUGUACCACCUUCUAAUACCAUGAGUCCCUUUAACACCUCUGAUUACCGCUUUGAGUGUAUAUGU | 0.118 |
| AAGUACAAUGAUCCUAUCUAUGUUAAACUAGAGAAGUUAGACAUCAUGAUUCGUCUUGCAUCCCAAGCCAACAUUGCUCAGGUUCUGGCGGAGCUGAAGGAAUAUGCCACUGAAGUUGAU | 0.0962 |
| ACAGACAUUCGCUGCCCCUUUGAAAAACGAAGAGAUGCAGCAUGUGUGUUUUGGGACAAUGUAGUAUACAUUUUGGGAGGUUCUCAGCUUUUCCCCAUAAAGCGAAUGGAUUGCUACAAU | 0.159 |

Series 2 — method: RNA Bind-n-Seq; molecule type: RNA; sample: in vitro; tested at: 365 nM; reference: no-protein control; reading: higher = stronger binding
Target: RNA binding protein fox-1 homolog 2, RRM domain, GST-SBP tag (RBFOX2, Homo sapiens, UniProt O43251-10, residues 100-194)
Setting: natural RNA segment, single round, ends assumed
Constant ends, left off below: GGGAGUUCUACAGUCCGACGAUC … UGGAAUUCUCGGGUGCCAA
Residues (chain): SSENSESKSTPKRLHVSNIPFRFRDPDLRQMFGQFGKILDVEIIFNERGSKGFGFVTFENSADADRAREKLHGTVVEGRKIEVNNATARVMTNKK
| Strand | RBNS enrichment (R) |
| --- | --- |
| ACUGUCCCCCGUCUGUCCAGCAAUAGUCUGUCCAGAGACAAGCUUCUGUAGCGGCAGGGCUUCCGCAAAACUAACCUGCUUUGUCCAGGUCACCCCAGACACCGCCCCUC | 0.443 |
| UUCAUACCUUCUGAUGAAGUUGUACAACACCAGCAACAUUAUAAUGGCCCUGUAGCUCUGAAUGCUAUUUGUGUAACUGAAAGGUUGCACUCUAGGGUGAACCAAGCUAU | 0.341 |
| UUCGAGAUGAAUGUAAACUGUAUUCUUUUGAAAUGUGCAAGUGUUUGAUUCAUGCCAUUUGAUAAACUUCUGCCUUGUAGUCAUUGUUUGAUGGGACCAACUUGUAAAGU | 1.5 |
| UGAAUGUCACUCUCCACUGCUGCAGCAGUAAAUCUCUCAGUAAAAGAAGACCCUCUCCCUCAGGGGACUGUCACCUCAGUCCUCGGUAGUUCUGUAAUUUAUUGAACAUU | 0.361 |
| UUAAAUCGGAUGUUUCCUGUACCUGCCACACUAUGUUAGAAUGUGUCCUUCAACCAUAUCCUGCAACUUCUCAAACUGUACUAAAUUGAUAUUUCUUGAAGUCUAACUCU | 0.445 |
| UCAAGGGCAUGAGCGGUGGAUACAGAAGUAGACAUUUUAACAAGAAGAUGAAUGGCGUCUGUGGGUUGCUAACUGAACUUUGAAGACCCGCUGCAAAACGCGCAGAUGUG | 1.28 |
| GCUGCUGUGAGCAAAUGAACAUAAAUGCUCGCUGGAAAUUUACUAACCAGUUUUUAUAUUGACCUGCAGUGUAAAAAGCACAUUUAAUUAUAAACAAUAUAUUCAAAAUG | 0.644 |
| GGAGACUCACUCUGUUGCCCAGACUGGAGUGCAGUGGCACGAUCUUGGCUUACUACAACCUCCGCCUCCUGGGUUCAAGCGAUCCUCCUGCCUCAGCCCCCCACUAGCUG | 0.581 |
| ACCCACCAGUGACUUGACUGCUCUGCACCUUUGCAUCUUCAGAGCUGCUGCGUCUAUCAGGAGAGCAGGAUCAGAUUAUGGUAUCCAGAUACCAGUAGAAGAAUUGGAUG | 1.39 |

Series 3 — method: protein binding microarray; molecule type: double-stranded DNA, one strand shown; sample: in vitro; tested at: not given; reference: not given; reading: higher = stronger binding
Target: Histone acetyltransferase KAT6A, winged helix 2, GST fusion (KAT6A, Homo sapiens, UniProt Q92794, residues 85-181)
Setting: 8-mer, flanks averaged, mean of 2 arrays, mostly near background
Target sequence (chain): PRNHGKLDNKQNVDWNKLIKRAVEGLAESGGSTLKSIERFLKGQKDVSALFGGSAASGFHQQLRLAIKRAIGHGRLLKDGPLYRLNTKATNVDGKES
| Strand | E-score |
| --- | --- |
| ACGCCTAT | -0.0905 |
| AGGGACAG | -0.0545 |
| ACCCCGGT | -0.138 |
| TCATCGAA | 0.0898 |
| ACCGATGA | 0.063 |
| AGGCCACC | -0.0265 |
| AGATACTC | -0.104 |
| ATTTAAAT | 0.119 |
| GACTATGC | -0.0053 |
| AGGGTTCC | 0.0886 |
| TAATGTCA | -0.109 |
| CCCGAATA | 0.0903 |
| ATTGCCGG | 0.081 |
| ACACATAA | -0.202 |
| GAACTGCA | 0.0347 |
| CCAACGAA | -0.0476 |
| AGACTGCC | -0.0301 |
| AGATCGCG | 0.122 |
| CTGTGCGA | 0.0678 |
| AGCTAACG | -0.00722 |
| CCGATTAC | -0.00662 |
| TGAGATCA | 0.135 |
| AGGGTATA | -0.00645 |
| CATACTAC | -0.203 |
| CAGAGAGA | 0.12 |

Series 4 — method: competition protein-binding microarray; molecule type: double-stranded DNA, one strand shown; sample: in vitro; tested at: 2 µM; with: Cbf1 competitor, 0.05 µM; reading: higher = stronger binding; constant ends, left off below: … GTCTTGATTCGCTTGACGCTGCTG
Target: Phosphate system positive regulatory protein PHO4, full length, GST-tagged (PHO4, Saccharomyces cerevisiae, UniProt P07270, residues 1-312)
Setting: whole 60-bp probe, lowest competitor level
Target sequence (chain): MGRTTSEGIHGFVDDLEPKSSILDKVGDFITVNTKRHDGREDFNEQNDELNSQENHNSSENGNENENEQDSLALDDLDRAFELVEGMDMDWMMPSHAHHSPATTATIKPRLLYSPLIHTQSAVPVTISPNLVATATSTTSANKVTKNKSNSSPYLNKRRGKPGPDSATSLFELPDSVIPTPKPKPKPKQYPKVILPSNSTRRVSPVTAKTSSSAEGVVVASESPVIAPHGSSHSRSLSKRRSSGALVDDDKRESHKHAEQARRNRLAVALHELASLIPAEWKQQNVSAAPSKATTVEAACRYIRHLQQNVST
| Strand | fluorescence intensity |
| --- | --- |
| TTTGGCCTCAAATGACACATGCAATCTCGAACAGTT | 7740 a.u. |
| CCGCTATATACTTTTCACGTGGGACCTGCAAAATAA | 16700 a.u. |
| AAATTACTAAGTTGTCACTATACTTACCCCGTATGA | 3630 a.u. |
| CTTCTGTAAATTTGGAATGTGGGTGGACGCGCCCCG | 5570 a.u. |
| TGGCGCTGGGGTCCTCACGGGCGCTTTGTTCAAGTC | 4480 a.u. |
| GTCTTGTCTCATTGGGAAGTGGGTGTCCCCACTTCA | 4350 a.u. |
| CTGCTGCTGGTCTTGGCCGTGACGGGTGATACGAGT | 5080 a.u. |
| CATACCCAACCTTGTCACGGAACTTAAGATATTTGT | 4060 a.u. |
| CGTTGCAGGAGCCCGCCCATGGACGCATTTGAGCAA | 3990 a.u. |
| ACCGCGCGATTATTTAGTGTGACGGGAGCAAAGTAG | 5680 a.u. |
| GGAGATGATTTAACACCCGTGGAACTGAAAAAAGCC | 7240 a.u. |
| TGCGCAACAACTTTTCACGTGTAATTATGTCTAGAA | 13100 a.u. |
| GTCTTGTCTCATTGTCACGTAACTTTCCCCACTTCA | 4690 a.u. |
| CGGGGTTAAGTTTGATCTGTGGGTGGCTTGCAGCAG | 4260 a.u. |
| AAATTACTAAGTTGTCACGAGACTTACCCCGTATGA | 6750 a.u. |
| CATACCCAACCTTGTTCTGTGGGTGAAGATATTTGT | 3650 a.u. |
| CGTCCTAGTGATTGGTGAGTGGGTGCCATGAGGAAG | 7260 a.u. |
| GCACCATTTGCCCATCACGTCCAACGGTAGTGGTCC | 3970 a.u. |
| CATACCCAACCTTGGCACGTGGGTGAAGATATTTGT | 19300 a.u. |
| CAACTAAAATGTCCAGACATGATGTTAAGCGGAAGG | 6110 a.u. |
| CTTCTGTAAATTTGAGAAGTGGGTGGACGCGCCCCG | 3650 a.u. |
| CTACGCCATCGTTAGCACGCAGAATATTACTTTTTC | 7610 a.u. |
| CTTTCCCGATCTTTTCACGTGTTGTTAGCACATTTG | 14500 a.u. |
| ACCCGGGTGTCGTTATGCGTGATGGGCATCAATTTT | 5610 a.u. |
| CTAACGAAGGTTTGTCACTAAACTTACAAGCCAAGT | 2840 a.u. |
